Published values pooled from the literature.
Parts stem from different laboratories: compare values within a part only.

Block 1 — read-out: enzyme activity; action: inhibitor; tested at: 20 µM
Target: Replicase polyprotein 1ab, polymerase (rep, Severe acute respiratory syndrome coronavirus 2, UniProt P0DTD1)
SMILES	inhibition
S=C(S)O[C@@H]1C[C@@H]2C[C@@H]1[C@H]1CCC[C@@H]21	-9.36%
Cc1cccc(CC(=O)N2CCc3c2ccc(-c2cn(C)c4ncnc(N)c24)c3F)n1	-3.41%
CC(C)C[C@@H](C(=O)N[C@@H](Cc1ccc(OCc2ccccc2)cc1)C(=O)NC(C)(C)C)N(C)Cc1ccc(C(C)(C)C)cc1	3.81%
S=C(NCc1ccc2c(c1)OCO2)N1CCN(c2ncnc3c2oc2ccccc23)CC1	2.2%
CN1C(CSCC(F)(F)F)Nc2cc(Cl)c(S(N)(=O)=O)cc2S1(=O)=O (centres unmarked)	-6.29%
CN1C2=CC(=O)/C(=N\NC(N)=O)C=C2CC1S(=O)(=O)O (centres unmarked)	1.36%
CC1(C)CCC[C@]2(C)[C@H]3CC(=O)O[C@]3(C)CC[C@@H]12	-7.37%
CC(C)Oc1ccc(C(=O)N[C@H](CNC(=O)CN(C)C)Cc2ccc(-c3cn4cccc([C@H](C)O)c4n3)cc2)cc1Cl	9.84%
O=C(OCC(O)CO)c1ccccc1Nc1ccnc2cc(Cl)ccc12 (centres unmarked)	6.05%
C/N=C(/NC#N)NCCSCc1csc(NC(=N)N)n1	2.47%
Cc1c(N(C)C)c(=O)n(-c2ccccc2)n1C	0.97%
COc1cccc([C@@H](C)NCCCc2ccccc2Cl)c1	4.97%
CN(C)N=Nc1ccc(C(=O)O)cc1	0.78%
CN1CCN(c2ccc(/C=C(\C#N)c3ccccc3Br)cc2)CC1	-0.56%
C[C@@H]1CN(CC(=O)Nc2ccc3c(c2)Cc2cccc(-c4cc(=O)cc(N5CCOCC5)o4)c2S3)C[C@H](C)O1	-4%
N=C(N)NC(=O)Cc1c(Cl)cccc1Cl	-2.26%
COCCNC(=O)Cn1cnc([N+](=O)[O-])n1	0.41%
CC[C@@H](CO)NCCN[C@@H](CC)CO	8.32%
COc1cc(OC)nc(O[C@H](C(=O)O)C(OC)(c2ccccc2)c2ccccc2)n1	-3.56%
CC(=O)Oc1cc2c(s1)CCN(C(C(=O)C1CC1)c1ccccc1F)C2 (centres unmarked)	-6.14%
C=C[C@@](C)(/C=C/c1ccc(O)cc1)CCC=C(C)C	-0.48%
Cc1[nH]c2ccccc2c1CCNCc1ccc(/C=C/C(=O)NO)cc1	0.08%
COc1cc(Nc2c(C#N)cnc3cc(OCCCN4CCN(C)CC4)c(OC)cc23)c(Cl)cc1Cl	15.5%
O=c1[nH]c(=O)n([C@H]2C[C@H](O)[C@@H](CO)O2)cc1Br	0.02%
CC(C)n1nc(C#Cc2ccccc2)c2c(N)ncnc21	1.95%

Block 2 — technique: protein binding microarray; form: double-stranded DNA, one strand shown; sample: in vitro; tested at: not given; baseline: not given; reading: higher = stronger binding
Target: Histone acetyltransferase KAT6A, winged helix 1, GST fusion (KAT6A, Homo sapiens, UniProt Q92794, residues 1-85)
Notes: 8-mer, flanks averaged, mean of 2 arrays, mostly near background
Target sequence (chain): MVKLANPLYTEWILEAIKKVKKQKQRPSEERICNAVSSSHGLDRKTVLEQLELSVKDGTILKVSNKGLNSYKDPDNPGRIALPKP
Strand	E-score
CCTTGTTA	-0.0864
CGAGTCCC	0.182
GTACAGAA	-0.1
ACATCCTA	-0.117
CATACGCC	0.163
AGCGATAA	0.112
ACACGCTC	0.0739
AACTAGTT	-0.149

Block 3 — technique: competition protein-binding microarray; form: double-stranded DNA, one strand shown; sample: in vitro; tested at: 2 µM; together with: Pho4 competitor, 0.05 µM; reading: higher = stronger binding; all sequences stand within: … GTCTTGATTCGCTTGACGCTGCTG
Target: Centromere-binding protein 1, full length, His-tagged (CBF1, Saccharomyces cerevisiae, UniProt P17106, residues 1-351)
Sequence of UniProt P17106 (whole entry, looked up): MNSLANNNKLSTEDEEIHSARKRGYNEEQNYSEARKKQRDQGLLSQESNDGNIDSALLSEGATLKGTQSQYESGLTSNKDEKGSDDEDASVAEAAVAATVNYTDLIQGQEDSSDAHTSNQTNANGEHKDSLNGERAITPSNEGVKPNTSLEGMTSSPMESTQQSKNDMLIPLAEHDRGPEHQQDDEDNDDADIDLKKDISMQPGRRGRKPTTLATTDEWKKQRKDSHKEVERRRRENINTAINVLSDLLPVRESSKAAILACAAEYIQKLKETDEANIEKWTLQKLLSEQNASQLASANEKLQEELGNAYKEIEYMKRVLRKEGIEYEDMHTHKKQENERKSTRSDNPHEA
Notes: whole 60-bp probe, lowest competitor level
Strand	fluorescence intensity [a.u.]
GCCGCATTGCACCTTGTCGTGATGGATTCTAAGTAC	84.1
CTAATTCAGCACCAACACGTGAGATCCAACTAATAA	1170
AGCTGGCAGAACCTCCATGTGCTCCAGGTCTCTGAT	69.7
CATACCCAACCTTTTCACGTGCTCTAAGATATTTGT	1690
ACTAAACAGTATATTCACGTGATGGCTTTGCCTTAC	2230
CGGGGTTAAGTTTGCCTTGTGGGTGGCTTGCAGCAG	80.4
CTTTCCCGATCTTGTTTGGTGGGTGTAGCACATTTG	87.1
CTTCTGTAAATTTGTCACTTCACTTGACGCGCCCCG	95.6

Block 4 — technique: universal PBM; form: double-stranded DNA, one strand shown; sample: in vitro; tested at: 600 nM; reading: higher = stronger binding
Target: Sal-like protein 4, full length isoform A (SALL4, Homo sapiens, UniProt Q9UJQ4, residues 1-1053)
Sequence of UniProt Q9UJQ4 (whole entry, looked up): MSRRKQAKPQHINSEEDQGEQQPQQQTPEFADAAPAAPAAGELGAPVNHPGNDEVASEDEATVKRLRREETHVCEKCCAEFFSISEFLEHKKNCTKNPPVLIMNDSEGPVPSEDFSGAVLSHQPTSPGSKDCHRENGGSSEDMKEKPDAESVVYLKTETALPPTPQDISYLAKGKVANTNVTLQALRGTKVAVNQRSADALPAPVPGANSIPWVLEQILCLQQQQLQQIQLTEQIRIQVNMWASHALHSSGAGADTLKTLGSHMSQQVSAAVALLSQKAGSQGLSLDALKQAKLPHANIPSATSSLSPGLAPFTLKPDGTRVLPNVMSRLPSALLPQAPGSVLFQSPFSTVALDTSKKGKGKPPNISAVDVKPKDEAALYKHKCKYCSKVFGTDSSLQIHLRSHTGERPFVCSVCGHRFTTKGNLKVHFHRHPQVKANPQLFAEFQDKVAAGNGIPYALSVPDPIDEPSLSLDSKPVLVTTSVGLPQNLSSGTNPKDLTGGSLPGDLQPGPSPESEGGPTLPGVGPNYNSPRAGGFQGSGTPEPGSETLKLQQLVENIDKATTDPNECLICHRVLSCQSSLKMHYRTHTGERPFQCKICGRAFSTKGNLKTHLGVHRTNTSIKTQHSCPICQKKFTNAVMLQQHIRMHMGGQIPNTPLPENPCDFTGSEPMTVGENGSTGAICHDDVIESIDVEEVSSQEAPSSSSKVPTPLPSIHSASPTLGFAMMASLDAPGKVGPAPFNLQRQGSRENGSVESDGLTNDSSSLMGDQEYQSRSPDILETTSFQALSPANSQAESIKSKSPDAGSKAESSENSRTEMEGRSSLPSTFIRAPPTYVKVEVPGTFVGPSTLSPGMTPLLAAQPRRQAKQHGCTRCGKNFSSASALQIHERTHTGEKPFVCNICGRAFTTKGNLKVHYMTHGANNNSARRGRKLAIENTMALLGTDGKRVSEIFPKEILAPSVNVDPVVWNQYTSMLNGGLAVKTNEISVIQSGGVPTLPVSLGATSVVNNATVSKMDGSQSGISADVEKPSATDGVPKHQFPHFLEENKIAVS
Notes: 8-mer, flanks averaged, mean of replicates
Strand	E-score
CACCATTA	0.0272
CACTTTCA	0.0933
CAAAGGCC	-0.266
ACATACGA	0.139
AGCCTGAG	-0.0984
TATAAGGA	0.283
TTCCGGAA	-0.188
CATAGTCC	0.0555

Block 5 — read-out: enzyme activity; action: inhibitor; tested at: 20 µM; notes: hit confirmation, no DTT
Target: Replicase polyprotein 1ab, main protease (rep, Severe acute respiratory syndrome coronavirus 2, UniProt P0DTD1)
SMILES	inhibition [%]
COc1ccc2nc(S)[nH]c2c1	81.4
C=CC(=O)c1ccc2ccccc2c1	92.3
C=C1C(=O)O[C@H]2[C@H]1CC/C(C)=C/CC[C@@]1(C)O[C@@H]21	86.2

Block 6 — cell line: HEK-293T/ACE2; tested at: concentration not given; time: 16 (unit not given); baseline: vehicle
SMILES	viability [%]
C[N+]1(C)[C@@H]2CC[C@H]1C[C@@H](OC(=O)C(O)c1ccccc1)C2 (some centres unmarked)	101
CN(C)[C@@H]1C(O)=C(C(N)=O)C(=O)[C@@]2(O)C(O)=C3C(=O)c4c(O)ccc(Cl)c4[C@@H](O)[C@H]3C[C@@H]12	102
CCN[C@H]1CN(CCCOC)S(=O)(=O)c2sc(S(N)(=O)=O)cc21	107
Nc1cccc2c1C(=O)N(C1CCC(=O)NC1=O)C2=O (centres unmarked)	91.8

A few entries again (block 1):
SMILES	inhibition
CN(C)N=Nc1ccc(C(=O)O)cc1	0.78%
O=C(OCC(O)CO)c1ccccc1Nc1ccnc2cc(Cl)ccc12 (centres unmarked)	6.05%
C[C@@H]1CN(CC(=O)Nc2ccc3c(c2)Cc2cccc(-c4cc(=O)cc(N5CCOCC5)o4)c2S3)C[C@H](C)O1	-4%
COc1cccc([C@@H](C)NCCCc2ccccc2Cl)c1	4.97%
